# Measured values of several laboratories.
SMILES,test,system,setting,scale,quantity,result
C=C(NC(=O)c1csc(-c2nc3c(cc2O)-c2nc(cs2)C(=O)NC(C(C)O)C(=O)NC(=C(C)OC)c2nc(cs2)C(=O)NC2c4nc(cs4)C(=O)NC(COC(=O)c4c5c6c(cccc6n4O)COC(=O)C(OC4CC(C)(O)C(N(C)C)C(C)O4)C2OC5)c2nc-3cs2)n1)C(N)=O (centres unmarked),,"ICR mice, Streptococcus pneumoniae ATCC 49169 infected, immunocompromised, blood","intravenous, 4 mg/kg/day once daily",,AUC(0-t),311 ng·h/mL
COC(=O)[C@@]1(C)C=C(C(=O)Nc2cccc(C(=O)Nc3ccc(Nc4nccc(-c5cccnc5)n4)c(C)c3)c2)C(=O)CC1,,"Wistar rat male, blood plasma","1 µM, 30 min",,compound remaining,43.2%
CN(C)C(=O)CNC(=O)c1ccc([C@H]2[C@@H](F)[C@@H](F)C[C@@H](F)[C@H]2F)cc1,liver microsome stability,dog liver microsomes,1 µM,,hepatic clearance,7.3 mL/min/kg
O=C(c1ccc(-c2ccccc2)cc1)N1CCCCC1,metabolic stability,"human, liver microsomes","2 µM, 40 min, pH 7.4",,compound remaining,84%
C/C(N)=N/C(=N\S(=O)(=O)c1ccc(C(F)(F)F)cc1)N1C[C@H](c2ccccc2)C(c2ccc(Cl)cc2)=N1,,monkey,,baseline: in vivo over in vitro CLint,empirical scaling factor,45
Cc1ccc(-c2ccc([C@H]3[C@@H](F)[C@@H](F)C[C@@H](F)[C@H]3F)cc2)cn1,liver microsome stability,cynomolgus liver microsomes,1 µM,,hepatic clearance,34 mL/min/kg
CCN(CC)c1ccc2c(c1)O[B-]1(c3ccccc3)OC(=O)C(c3ccccc3)=N[N+]1=C2C(C)C (centres unmarked),,toluene,,,fluorescence emission maximum,514 nm
O=C1c2sc(-c3ccc(N4CCC(CO)CC4)nc3F)nc2CCN1c1cccnc1,LC-MS,human hepatocytes,"5 µM, 60 min",,parent share of total peak area,54%
CS(=O)(=O)c1ccc(-c2ccc(C3CCCCC3)cc2)cn1,liver microsome stability,mouse liver microsomes,1 µM,,hepatic clearance,65 mL/min/kg
COc1cnc2cccc(N3CCc4c(cc(Cn5ccnc5)cc4-c4cn(C)nc4C(F)(F)F)C3=O)c2c1,,"CD-1 mouse, male, plasma","intraperitoneal, 100 mg/kg",,AUC extrapolated fraction,0.3%
O=C(c1ccc(C2CCCCC2)cc1)N1CCC(F)CC1,liver microsome stability,dog liver microsomes,1 µM,,hepatic clearance,24 mL/min/kg
O=C(Nc1cnccc1-c1ccc([18F])nc1)c1ccnc(NC(=O)C2CC2)c1,ex vivo gamma counting,"GSK-3β transgenic mice, early-stage, adipose tissue","intravenous, 120 min, added: tariquidar 15 mg/kg iv",,mean SUV,0.117
C=CC(=O)Nc1cc(Nc2nccc(-c3cn(C)c4ccccc34)n2)c(OC)cc1N(C)CCNC,storage stability,human dried blood spot samples,"30 d, -80 °C, LLOQ level",baseline: nominal concentration,percentage recovery,13.3%
COc1ccc(CN2CCC(F)(F)C(COc3ccc(F)c(F)c3)C2)cc1F (centres unmarked),equilibrium dialysis,mouse plasma,,,fu,0.048
O=C(Nc1ccc([C@H]2[C@@H](F)[C@@H](F)C[C@@H](F)[C@H]2F)cc1)C1(N2CCOCC2)CC1,hepatocyte stability,cryopreserved mouse hepatocytes,1 µM,,hepatic clearance,42 mL/min/kg
COc1cccc(OC)c1-c1cc(C(=O)NC2(C(=O)O)C3CC4CC(C3)CC2C4)nn1-c1ccc(C(=O)N(C)CCOCCOCCN(C)C(=O)[C@H](CCCCNC(=O)[C@H](CC(C)C)NC(=O)C2OC2C(=O)O)NC(=O)CN2CCN(CC(=O)[O-])CCN(CC(=O)[O-])CCN(CC(=O)[O-])CC2)cc1C(C)C.[177Lu+3] (mixture of isomers),,"mouse HT-29 xenograft, large intestine","168 h post injection, biodistribution",,tissue uptake,0.056 %ID/g
CCCCCCCOc1ccc(CC[C@](N)(CO)COP(=O)(O)O)cc1C(F)(F)F,,"healthy men, plasma","oral, 0.125 mg once daily, day 21, fed state",,AUCτ,30 ng·h/mL

# For quick reference, copied from above:
SMILES,test,system,setting,scale,quantity,result
O=C1c2sc(-c3ccc(N4CCC(CO)CC4)nc3F)nc2CCN1c1cccnc1,LC-MS,human hepatocytes,"5 µM, 60 min",,parent share of total peak area,54%
